Assay results gathered from unrelated publications.
Lines come from different studies, so protocols differ. ± gives the spread as reported.

| SMILES | assay | system | setting | scale | IC50 |
| --- | --- | --- | --- | --- | --- |
| CC1OC(OC2C(c3c(O)cc(O)c4c(=O)cc(-c5ccc(O)cc5)oc34)OC(CO)C(O)C2O)C(O)C(O)C1O (stereo not drawn) | AGE formation | BSA-fructose model |  |  | 75.39 ± 0.41 µM |
| CC[C@H](C)[C@H](NC(C)=O)C(=O)N[C@H]1CSSC[C@@H](C(=O)N(C)[C@H](C(N)=O)[C@@H](C)CC)NC(=O)[C@H](CCCNC(=N)N)NC(=O)[C@H](Cc2c[nH]cn2)NC(=O)[C@H](C)NC(=O)CN(C)C(=O)[C@H](Cc2c[nH]c3ccccc23)NC(=O)[C@H](CC(=O)O)NC(=O)[C@H](CCC(N)=O)NC(=O)[C@H](Cc2cn(C)c3ccccc23)NC(=O)[C@H](C(C)C)NC1=O | complement activation, ELISA, item: C3 fragment deposition | human serum | classical pathway |  | 0.062 µM |
| CC(=O)C1=C(C)NC(=O)NC1c1ccc(Cl)cc1 (stereo not drawn) | nitric oxide scavenging |  |  |  | 139 µM |
| CC[C@H](C)[C@H](NC(C)=O)C(=O)N[C@H]1CCSC[C@@H](C(=O)N[C@H](C(N)=O)[C@@H](C)O)NC(=O)[C@H](CCCNC(=N)N)NC(=O)[C@H](Cc2c[nH]cn2)NC(=O)[C@H](C)NC(=O)CNC(=O)[C@H](Cc2c[nH]c3ccccc23)NC(=O)[C@H](CC(=O)O)NC(=O)[C@H](CCC(N)=O)NC(=O)[C@H](Cc2c[nH]c3ccccc23)NC(=O)[C@H](C(C)C)NC1=O | classical complement activation, inhibitor, C3b deposition ELISA | normal human plasma | 15 min, plasma 1:80 |  | > 20 µM |
| CC(=O)C1=C(C)NC(=O)NC1c1ccc(F)cc1 (stereo not drawn) | nitric oxide scavenging |  |  |  | 233 µM |
| CCCCn1cc(C(=O)O)c(=O)c2cc(F)c3c(nnn3-c3ccc(OC)cc3)c21 | DPPH radical scavenging |  | 30 min |  | 79.4 ± 8.7 mg/L |
| NS(=O)(=O)c1ccc(/N=N/c2ccc(O)c(/C=N/c3cccc(O)c3)c2)cc1 | DPPH radical scavenging |  | 60 min |  | 14 ± 1.22 µM |
| COc1ccc(C2NC(=O)NC(C)=C2C(C)=O)cc1 (stereo not drawn) | ferric reducing power, FRAP |  |  |  | 30.7 µM |
| CCCCSc1nnc(-c2cc([N+](=O)[O-])ccc2Cl)o1 | H2O2 scavenging |  |  |  | 44.6 ± 1.1 µM |
| C#CCCCC(=O)NCC(=O)NCC(=O)NCC(=O)N1CCC[C@H]1C(=O)N[C@@H](CCCCN)C(=O)N[C@@H](CCCCN)C(=O)N[C@@H](CCCCN)C(=O)N[C@@H](CCCNC(=N)N)C(=O)N[C@@H](CCCCN)C(=O)N[C@H](C(=O)NCC(=O)NCC(N)=O)C(C)C | translation, luciferase reporter | rabbit reticulocyte lysate |  |  | > 250 µM |
| CCCCn1cc(C(=O)O)c(=O)c2cc(F)c3c(nnn3-c3cccc(OC)c3)c21 | DPPH radical scavenging |  | 30 min |  | 737 ± 102 mg/L |
| CC(C)(C)c1ccc(-c2nnc(S)o2)cc1 | H2O2 scavenging |  |  |  | 117 ± 3.3 µM |
| CCCCCCCCCc1nc2cc(Cl)ccc2c(=O)n1CCCN | haemolysis | rabbit erythrocytes | 60 min | baseline: Triton X-100 | 173 µM |
| CC(=O)c1cnc(N)nc1N1CC[C@H]1c1nn2ccc(Cl)c2c(=O)n1-c1ccccc1 | Th17 differentiation, item: IL-17A | rheumatoid arthritis patient whole blood |  |  | 0.088 µM |
| COc1ccc(-c2c(O)oc3c(CC=C(C)C)c(O)cc(O)c3c2=O)cc1 | oxidative burst, luminol chemiluminescence | human whole blood | with: zymosan |  | > 100 mg/L |
| CC(=O)[O-].[Cu+2].[O-]c1ccc(Br)cc1C=NCCN1CCOCC1 | superoxide scavenging |  |  |  | 200 µM |
| C#CCNC(=O)CNC(=O)CNC(=O)[C@@H]1CCCN1C(=O)[C@H](CC(=O)O)NC(=O)CNC(=O)[C@H](CCCNC(=N)N)NC(=O)[C@H](CC(=O)O)NC(=O)CNC(=O)[C@H](CCCNC(=N)N)NC(=O)[C@H](CC(=O)O)NC(=O)CNC(=O)[C@H](CCCNC(=N)N)NC(=O)[C@H](CC(=O)O)NC(=O)CNC(=O)[C@@H](N)CCCNC(=N)N | translation, luciferase reporter | Escherichia coli S30 extract |  |  | > 250 µM |
| CC[C@H](C)[C@H](NC(=O)[C@@H]1CSSC[C@H](NC(=O)[C@@H](NC(C)=O)[C@@H](C)CC)C(=O)N[C@@H](C(C)C)C(=O)N[C@@H](Cc2cn(C)c3ccccc23)C(=O)N[C@@H](CCC(N)=O)C(=O)N[C@@H](CC(=O)O)C(=O)N[C@@H](Cc2c[nH]c3ccccc23)C(=O)N(C)CC(=O)N[C@@H](C)C(=O)N[C@@H](Cc2c[nH]cn2)C(=O)N[C@@H](CCCNC(=N)N)C(=O)N1)C(N)=O | complement activation, ELISA, item: C3 fragment deposition | human serum | classical pathway |  | 0.092 µM |
| CCCCSc1nnc(-c2cc(Cl)ccc2Cl)o1 | nitric oxide scavenging |  |  |  | 89.9 ± 1.3 µM |
| CC(C)CCCC(C)C1CCC2C3CC=C4CC(OC(=O)CCC(=O)NCCCCCCNc5ncnc6c5ncn6[C@@H]5O[C@H](COP(=O)(O)OP(=O)([O-])OP(=O)(O)OC[C@H]6O[C@@H](n7c[n+](C)c8c(O)nc(N)nc87)[C@H](O)[C@@H]6O)[C@@H](O)[C@H]5O)CCC4(C)C3CCC12C (stereo partly drawn) | cap-dependent translation | rabbit reticulocyte lysate | 1 h preincubation, with: capped luciferase mRNA |  | 12.6 ± 2.1 µM |

| SMILES | assay | system | setting | scale | IC50 |
| --- | --- | --- | --- | --- | --- |
| CCCCn1cc(C(=O)O)c(=O)c2cc(F)c(Nc3ccc(OC)cc3OC)c(N)c21 | DPPH radical scavenging |  | 30 min |  | 108 ± 12.4 mg/L |
| CCCCSc1nnc(-c2ccccc2Cl)o1 | superoxide scavenging, pyrogallol |  |  |  | 135 ± 4.4 µM |
| CC(=O)C1=C(C)NC(=O)NC1c1ccc(C)cc1 (stereo not drawn) | ferric reducing power, FRAP |  |  |  | 40 µM |
| O=[N+]([O-])c1ccc(Cl)c(-c2nnc(S)o2)c1 | nitric oxide scavenging |  |  |  | 47.7 ± 1.1 µM |
| COc1cccc(C2NC(=O)NC(C)=C2C(C)=O)c1 (stereo not drawn) | nitric oxide scavenging |  |  |  | 259 µM |
| C#CCNC(=O)CNC(=O)CNC(=O)[C@H](Cc1ccc(O)cc1)NC(=O)[C@H](Cc1c[nH]cn1)NC(=O)[C@H](Cc1ccccc1)NC(=O)[C@H](Cc1c[nH]cn1)NC(=O)[C@H](CC(C)C)NC(=O)[C@H](Cc1c[nH]cn1)NC(=O)[C@H](Cc1ccccc1)NC(=O)[C@@H](N)Cc1ccccc1 | translation, luciferase reporter | rabbit reticulocyte lysate |  |  | 205 µM |
| CC(=O)C1=C(C)NC(=O)NC1c1cccc(Br)c1 (stereo not drawn) | ferric reducing power, FRAP |  |  |  | 107 µM |
| CCCCSc1nnc(-c2ccc(C(C)(C)C)cc2)o1 | H2O2 scavenging |  |  |  | 50 ± 3.1 µM |
| O=c1c(O)c(-c2ccc(O)cc2)oc2cc(O)cc(O)c12 | DPPH radical scavenging | methanol | 30 min, with: DPPH 50 µM |  | 13 µM |
| CCCCn1cc(C(=O)O)c(=O)c2cc(F)c3c(nnn3-c3ccccc3OC)c21 | DPPH radical scavenging |  | 30 min |  | 3240 ± 364 mg/L |
| C[n+]1cn([C@@H]2O[C@H](COP(=O)(O)OP(=O)([O-])OP(=O)(O)OC[C@H]3O[C@@H](n4cnc5c(=O)[nH]c(N)nc54)[C@H](O)[C@@H]3OC(=O)NCCCCCCN)[C@@H](O)[C@H]2O)c2nc(N)nc(O)c21 | cap-dependent translation | rabbit reticulocyte lysate | 1 h preincubation, with: capped luciferase mRNA |  | 10.9 ± 1.4 µM |
| Sc1nnc(-c2ccccc2)o1 | superoxide scavenging, pyrogallol |  |  |  | 165 ± 3.2 µM |
| O=c1cc(-c2ccc(O)c(O)c2)oc2cc(O[C@@H]3O[C@H](CO)[C@@H](O)[C@H](O)[C@H]3O)cc(O)c12 | ferric reducing antioxidant power, FRAP |  |  |  | 46.9 ± 0.83 mg/L |
| NS(=O)(=O)c1ccc(/N=N/c2ccc(O)c(/C=N/c3cc([N+](=O)[O-])ccc3O)c2)cc1 | DPPH radical scavenging |  | 60 min |  | 14.3 ± 0.63 µM |
| CCCCCCCCCCCCCCCCCCCCCCCC(=O)OCC(O)CO (stereo not drawn) | DPPH radical scavenging |  | 30 min |  | 875 ± 462 mg/L |
| CC(=O)C1=C(C)NC(=O)NC1c1ccc([N+](=O)[O-])cc1 (stereo not drawn) | ferric reducing power, FRAP |  |  |  | 283 µM |
| Sc1nnc(-c2cc(Cl)ccc2Cl)o1 | H2O2 scavenging |  |  |  | 107 ± 1.1 µM |
| CC(=O)C1=C(C)NC(=O)NC1c1ccc(Br)cc1 (stereo not drawn) | nitric oxide scavenging |  |  |  | 112 µM |
| O=C(CCc1ccc(CNC(C(=O)OC2CCCC2)C2CCCCC2)cn1)NO (stereo not drawn) | item: TNF-alpha | human whole blood | overnight, with: LPS 200 ng/mL |  | 0.174 µM |

Repeated from above:
| SMILES | assay | system | setting | scale | IC50 |
| --- | --- | --- | --- | --- | --- |
| NS(=O)(=O)c1ccc(/N=N/c2ccc(O)c(/C=N/c3cc([N+](=O)[O-])ccc3O)c2)cc1 | DPPH radical scavenging |  | 60 min |  | 14.3 ± 0.63 µM |
| CCCCSc1nnc(-c2cc(Cl)ccc2Cl)o1 | nitric oxide scavenging |  |  |  | 89.9 ± 1.3 µM |
| CC(=O)C1=C(C)NC(=O)NC1c1ccc(F)cc1 (stereo not drawn) | nitric oxide scavenging |  |  |  | 233 µM |
| CC(C)CCCC(C)C1CCC2C3CC=C4CC(OC(=O)CCC(=O)NCCCCCCNc5ncnc6c5ncn6[C@@H]5O[C@H](COP(=O)(O)OP(=O)([O-])OP(=O)(O)OC[C@H]6O[C@@H](n7c[n+](C)c8c(O)nc(N)nc87)[C@H](O)[C@@H]6O)[C@@H](O)[C@H]5O)CCC4(C)C3CCC12C (stereo partly drawn) | cap-dependent translation | rabbit reticulocyte lysate | 1 h preincubation, with: capped luciferase mRNA |  | 12.6 ± 2.1 µM |
| CCCCn1cc(C(=O)O)c(=O)c2cc(F)c3c(nnn3-c3ccccc3OC)c21 | DPPH radical scavenging |  | 30 min |  | 3240 ± 364 mg/L |
